Measurements from different studies.
Numbered parts are unrelated; each lists some results of a single study.

Sample 1
Target: Max-binding protein MNT, bHLH-zipper, MAX partner unstated (MNT, Homo sapiens, UniProt Q99583, residues 220-300)
Technique: protein-binding microarray
Molecule type: double-stranded DNA, one strand shown
Sample: in vitro
Concentration: not given
Notes: k-mer, scored over probes, only values ≥0.25
Reading: higher = stronger binding
Target sequence (chain): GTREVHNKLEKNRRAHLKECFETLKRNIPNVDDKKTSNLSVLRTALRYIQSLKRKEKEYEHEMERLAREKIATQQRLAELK
`GCACACGA` gave an E-score of 0.298.
With `ACTCGTGG` the E-score was 0.41.
The E-score of `CGTGCGAG` is reported as 0.34.
`GCGTGTGA` gave an E-score of 0.327.
The E-score of `ATGTGACA` is reported as 0.344.
`ACACGGGG` has an E-score of 0.381.
`GTGACTGA` has an E-score of 0.256.

Sample 2
Target: RING finger protein unkempt homolog, zinc fingers 1-6, SBP tag (UNK, Homo sapiens, UniProt Q9C0B0, residues 30-357)
Chain of UniProt Q9C0B0 (30-357, looked up): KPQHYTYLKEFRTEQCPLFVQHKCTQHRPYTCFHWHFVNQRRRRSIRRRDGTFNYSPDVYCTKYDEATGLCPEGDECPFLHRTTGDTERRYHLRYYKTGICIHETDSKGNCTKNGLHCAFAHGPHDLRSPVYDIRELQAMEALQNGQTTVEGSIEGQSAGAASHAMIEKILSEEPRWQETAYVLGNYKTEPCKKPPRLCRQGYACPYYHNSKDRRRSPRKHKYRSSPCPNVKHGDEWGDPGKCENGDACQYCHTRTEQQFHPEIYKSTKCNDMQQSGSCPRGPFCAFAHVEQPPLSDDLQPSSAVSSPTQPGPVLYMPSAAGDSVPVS
Technique: RNA Bind-n-Seq
Molecule type: RNA
Sample: in vitro
Concentration: 100 nM
Notes: RNA with constant flanks, vertebrate orthologous sites, ends assumed
Reference: input RNA pool
Reading: higher = stronger binding
`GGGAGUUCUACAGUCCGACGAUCAGCAGCUCAAGGAUUCCGGACUGGUUUUACAAAUGUUCCAAACAGAUAUGGAACUAAUGCGAAAGGGCAACCCAGACCACAAUAAACUCCAUUUUUCAUUAUUUAUUGUACUGAAGGCUACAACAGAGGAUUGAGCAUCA` gave a bound/input enrichment of 0.425 ratio.
For `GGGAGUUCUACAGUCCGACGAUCAGCUUCUGGUGACAUUUGGCCUGGCCUUUCAGCAUAUGAUAACAGUCCAAGGUCACCCCAUAGUCCUUCUAUUGCCUCCCCACCCAGUCAGAGUUCAUCUUGCUCUGAUGCCCCCUUGCUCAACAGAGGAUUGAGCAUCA`, the bound/input enrichment was 0.626 ratio.
With `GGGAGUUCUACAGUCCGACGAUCAUUUAAAAUGUGUUCAGUUAUAUUUAAUGAUCUCAUUCCUGAGUUCCUAUUUCAUUAAAGUAGCUUCCAUUUCUAUUUCCACAGUUAUGAAUAAAUAGAAGGUUUAUGCCAGUAGACACUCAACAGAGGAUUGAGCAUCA` the bound/input enrichment was 0.225 ratio.
`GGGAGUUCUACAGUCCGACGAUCGUUGUGACCCAUUUAACAUACAUAAAAAACUAGCCAAAAAAAAUCUGCACGUGAUUGACUUAGAUGAUGCCACUUUUCUGAGUGCAAAAUUUGGAAGACAGCUUGUACCUGGUUGGAAACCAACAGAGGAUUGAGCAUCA` has a bound/input enrichment of 1.67 ratio.
The bound/input enrichment of `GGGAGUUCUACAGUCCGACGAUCGGGACGUUUCGAUGUAAAAAUUGAAAUUAAGAGCUGAUCACAAGCACAAAUCUUCCCCACUAGCCAUUGAAUAAGUUAAAAAGAUACAAAAACCUACUAGUCUUGAAAAAAAAAAAAAAACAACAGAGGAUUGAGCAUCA` is reported as 1.66 ratio.
With `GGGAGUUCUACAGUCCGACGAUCGUGACUUUGGUCGUCCGCACAGCUUCGGUGCAGAGGGUACUUAGCCCAGGCCUUGCGCGUACGCUCUUCUCCUACCCGGUUUUUAGGCCUCUGCCGCAACCAUGCUGCGCAUGAUUUUCACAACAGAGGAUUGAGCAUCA` the bound/input enrichment was 0.181 ratio.
For `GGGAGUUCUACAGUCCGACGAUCGUGGGGAUGAGGGUGGGAUGGGAAAGGGAUGUAUGGAUGUUAUUGGCAUUUUUAAGUGUUUAGAGUUUUUUGGGGUUUGGGGUGGUUUUUUCCUUGUUUUCCUUUUUUCCUUUUAAUUGGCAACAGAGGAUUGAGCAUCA`, the bound/input enrichment was 2.12 ratio.
For `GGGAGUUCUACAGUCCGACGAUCCUUUUUAAGAUUUGGACCGAAUCAGGGAGCUAGCAAAAGCAAAGCAGACUUGUAAAAGUAUAGCCAUAUGCAGCUGCCCAACAACAGUUCUACCACUAGCAGCUGUGUUAAAGUAUUUAUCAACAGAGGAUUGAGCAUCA`, the bound/input enrichment was 0.586 ratio.
For `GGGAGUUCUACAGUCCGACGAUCUUCAGGCACAACUGACUGGUUCACAGCACUCCUUACAUAGUUAUCUAUCAAAUUCAAGUGUAGUUAAUUUUCAGGAAACAACCAGGCAGUCAUCUUUAUCCUGUAGCCCAGUUGGAGAUUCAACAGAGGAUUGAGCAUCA`, the bound/input enrichment was 1.37 ratio.
For `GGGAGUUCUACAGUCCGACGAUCCACAUCGGGUGAUAUUUGGCCUGGCCUUUCAGCUUAUGAUAAUAGUCCCAGAUCACCACACAGUCCUUCACCUAUUGCUACACCACCAAGUCAGAGUUCAUCUUGCUCUGAUGCCCCUAUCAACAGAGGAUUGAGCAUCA`, the bound/input enrichment was 0.613 ratio.
For `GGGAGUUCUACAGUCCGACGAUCUGCAAACUUCUCCUUAAACUGGUAUUGUCAGACAAUAGGAAGACUUUGUUUUUUUCACAGUUUAGUGCCUGGUUUCUACAUGGAAGACUAAACUCAUGCUUAUAGCUAAAUGUGGUCUUUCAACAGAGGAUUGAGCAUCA`, the bound/input enrichment was 0.175 ratio.

Sample 3
Target: Histone acetyltransferase KAT6A, both winged helices, GST fusion (KAT6A, Homo sapiens, UniProt Q92794, residues 1-181)
Technique: protein binding microarray
Molecule type: double-stranded DNA, one strand shown
Sample: in vitro
Concentration: not given
Notes: 8-mer, flanks averaged, mean of 2 arrays, mostly near background
Reference: not given
Reading: higher = stronger binding
Target sequence (chain): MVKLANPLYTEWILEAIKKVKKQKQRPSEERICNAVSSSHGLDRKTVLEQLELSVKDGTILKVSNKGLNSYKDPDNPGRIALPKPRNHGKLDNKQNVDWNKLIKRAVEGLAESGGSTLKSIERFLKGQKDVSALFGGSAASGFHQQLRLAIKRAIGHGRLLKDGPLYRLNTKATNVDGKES
`TAAATTTA` has an E-score of -0.0669.
With `AGACCAAC` the E-score was -0.238.
`CAATCAGA` has an E-score of -0.15.
For `ATACTCAG`, the E-score was 0.00425.
`AAAACGCG` gave an E-score of 0.279.
With `AGGTCCAA` the E-score was -0.0907.
The E-score of `AGTCACGC` is reported as 0.0163.
`CCAGTGTA` has an E-score of -0.132.
For `AGTCCAAG`, the E-score was -0.184.
The E-score of `ATTCTTTC` is reported as -0.155.
`GATGCTAC` has an E-score of -0.122.
`CCTTGAAA` has an E-score of -0.0596.
`CGATGGTA` gave an E-score of 0.0627.

Sample 4
Molecule: PhoQ, residues 284 288 289 292 302 303 AGGCYF
Technique: Sort-seq
Measured: YFP reporter
Sample: E. coli
Notes: PhoQ-PhoP variant library
With: 10 µM Mg2+
Reference: high Mg2+ state
Reading: higher = stronger signaling
The fold induction was 13.8 (PhoP, residues 12 14 15 18 19 NQCAL (Escherichia coli, UniProt P23836)).
PhoP, residues 12 14 15 18 19 TQAML (Escherichia coli, UniProt P23836) — fold induction: 20.2.
The fold induction was 17.7 (PhoP, residues 12 14 15 18 19 LHTVL (Escherichia coli, UniProt P23836)).
